Measured values pooled from the literature.
Compare with care: the assays were run in different laboratories.

With N=C(N)c1ccc(OCCC(CCOc2ccc(C(=N)N)cc2)c2ccccc2)cc1 (stereo not drawn) the MIC was > 200 µg/mL (Escherichia coli; mcr-1 polymyxin-resistant; 20 h, compound alone).
The MIC of CC(=O)NC[C@H]1CN(c2ccc(N3CCOCC3)c(F)c2)C(=O)O1 is reported as < 2.96 µM (Phocaeicola dorei; HM-719).
CN[C@H](CC(C)C)C(=O)N[C@H]1C(=O)N[C@@H](CC(N)=O)C(=O)N[C@H]2C(=O)N[C@H]3C(=O)N[C@H](C(=O)N[C@H](C(=O)O)c4cc(O)cc(O)c4-c4cc3ccc4O)[C@H](O)c3ccc(c(Cl)c3)Oc3cc2cc(c3O[C@@H]2O[C@H](CO)[C@@H](O)[C@H](O)[C@H]2O[C@H]2C[C@](C)(N)[C@H](O)[C@H](C)O2)Oc2ccc(cc2Cl)[C@H]1O gave an MIC of 1 µg/mL (Staphylococcus aureus; CVCC546; alone).
CC1(C)S[C@@H]2[C@H](NC(=O)[C@H](N)c3ccccc3)C(=O)N2[C@H]1C(=O)O has an MIC of 8 µg/mL (Stenotrophomonas maltophilia; broth microdilution; clinical isolate RKI-No 136/09).
With N=C(N)c1ccc(OCc2ccc(-c3ccccc3)cc2COc2ccc(C(=N)N)cc2)cc1 the MIC was 200 µg/mL (Escherichia coli; BW25113; compound alone, together with: erythromycin checkerboard).
With O=C(O)c1cn(C2CC2)c2cc(N3CCNCC3)c(F)cc2c1=O the MIC was 0.5 µM (Providencia alcalifaciens; ATCC 9886).
The MIC of Cc1ccc(CCC(=O)Nc2nnc(S(N)(=O)=O)s2)cc1 is reported as > 784 µM (Phocaeicola dorei; HM-717).
For CC(=O)ON=C1C=CC(=C(C#N)c2ccccc2)C=C1, the MIC was 8 µg/mL (Pichia norvegensis; broth dilution; ATCC 96139; 48 h, 37 °C).
CNC(C)C1CCC(N)C(OC2C(N)CC(N)C(OC3OCC(C)(O)C(NC)C3O)C2O)O1 (stereo not drawn) gave an MIC of > 8 µg/mL (Stenotrophomonas maltophilia; broth microdilution; clinical isolate RKI-No 729/15).
CC(C)(C)Oc1ccc(CC2NC(=O)C(C(=O)NC(C(=O)NC3C(=O)N4C3SC(C)(C)C4C(=O)O)c3ccccc3)=C2O)cc1 (stereo not drawn) gave an MIC of 12.5 µg/mL (Escherichia coli; broth microdilution; BW25113 wild type; 18 h).
For CCCCCCCCCC(=O)N[C@@H](Cc1c[nH]c2ccccc12)C(=O)N[C@H](CC(N)=O)C(=O)N[C@@H](CC(=O)O)C(=O)N[C@@H]1C(=O)NCC(=O)N[C@@H](CCCN)C(=O)N[C@@H](CC(=O)O)C(=O)N[C@H](C)C(=O)N[C@@H](CC(=O)O)C(=O)NCC(=O)N[C@H](CO)C(=O)N[C@@H]([C@H](C)CC(=O)O)C(=O)N[C@@H](CC(=O)c2ccccc2N)C(=O)O[C@@H]1C, the MIC was 1 µg/mL (Staphylococcus aureus; SH1000; together with: lysophosphatidylethanolamine, molar ratio 1).
CCON=C1C=CC(=C(C#N)c2ccccc2)C=C1 gave an MIC of 256 µg/mL (Pichia norvegensis; broth dilution; ATCC 96139; 48 h, 37 °C).
With C[C@@H](O)[C@H]1C(=O)N2C(C(=O)O)=C(S[C@@H]3CN[C@H](C(=O)N(C)C)C3)[C@H](C)[C@H]12 the MIC was > 64 µg/mL (Stenotrophomonas maltophilia; broth microdilution; clinical isolate RKI-No 136/09).
N#CC(=C1C=CC(=NOC(=O)OCc2ccccc2)C=C1)c1ccccc1 gave an MIC of 128 µg/mL (Pichia norvegensis; broth dilution; ATCC 96139; 48 h, 37 °C).
The MIC of C[C@@H](O)[C@H]1C(=O)N2C(C(=O)O)=C(S[C@@H]3CN[C@H](C(=O)N(C)C)C3)[C@H](C)[C@H]12 is reported as 2 µg/mL (Helicobacter pylori; broth microdilution; SS1; 48 h, microaerobic).

Some of these lines once more:
CCON=C1C=CC(=C(C#N)c2ccccc2)C=C1 gave an MIC of 256 µg/mL (Pichia norvegensis; broth dilution; ATCC 96139; 48 h, 37 °C).
